Assay results pooled from the literature.
Compare with care: the assays were run in different laboratories. ± gives the spread as reported.
Organism: human respiratory syncytial virus

SMILES | assay | system | setting | endpoint | result
c1csc(-c2nn3c(Cn4cnc5ccccc54)nnc3s2)c1 | viral replication | HEp-2, Long | – | EC50 | 200 nM
CC(C)CC(=O)OC[C@H]1O[C@@](C#N)(c2ccc3c(N)ncnn23)[C@H](O)[C@@H]1O | viral replication, viral protein ELISA | HEp-2, A2 | 5 days | EC50 | 450 ± 48 nM
NC(=O)c1ncn([C@@H]2O[C@H](CO)[C@@H](O)[C@H]2O)n1 | viral replication, CPE | HEp-2, A2 passaged with DMSO | – | IC90 | > 41000 nM
c1coc(-c2nn3c(Cn4cnc5ccccc54)nnc3s2)c1 | viral replication | HEp-2, Long | – | EC50 | 700 nM
N#C[C@@]1(n2ccc(N)nc2=O)O[C@H](CO)[C@@H](O)[C@H]1O | viral replication, cell-based | – | – | EC50 | > 20000 nM
O=c1ccn([C@@H]2O[C@](F)(CO)[C@@H](O)[C@H]2O)c(=O)[nH]1 | – | recombinant reporter virus | concentration not given, scale 0 to 100, with: adenosine 100 µM | normalized viral replication | 0
O=C(N1CCC2(CC1)C[C@H](CN1CCCCS1(=O)=O)CCO2)C1(c2ccccc2)CCCC1 | viral replication | – | – | EC50 | > 32000 nM
Nc1ccn([C@@H]2O[C@@](CO)(CCl)[C@@H](O)[C@H]2F)c(=O)n1 | viral replication, CPE | HEp-2, A2 passaged with DMSO | – | IC90 | 2280 nM
